Assay results from different studies.
Numbered parts are unrelated; each lists some results of a single study. ± marks the error that the study gave.
Sequence of UniProt Q8IZX4 (whole entry, looked up): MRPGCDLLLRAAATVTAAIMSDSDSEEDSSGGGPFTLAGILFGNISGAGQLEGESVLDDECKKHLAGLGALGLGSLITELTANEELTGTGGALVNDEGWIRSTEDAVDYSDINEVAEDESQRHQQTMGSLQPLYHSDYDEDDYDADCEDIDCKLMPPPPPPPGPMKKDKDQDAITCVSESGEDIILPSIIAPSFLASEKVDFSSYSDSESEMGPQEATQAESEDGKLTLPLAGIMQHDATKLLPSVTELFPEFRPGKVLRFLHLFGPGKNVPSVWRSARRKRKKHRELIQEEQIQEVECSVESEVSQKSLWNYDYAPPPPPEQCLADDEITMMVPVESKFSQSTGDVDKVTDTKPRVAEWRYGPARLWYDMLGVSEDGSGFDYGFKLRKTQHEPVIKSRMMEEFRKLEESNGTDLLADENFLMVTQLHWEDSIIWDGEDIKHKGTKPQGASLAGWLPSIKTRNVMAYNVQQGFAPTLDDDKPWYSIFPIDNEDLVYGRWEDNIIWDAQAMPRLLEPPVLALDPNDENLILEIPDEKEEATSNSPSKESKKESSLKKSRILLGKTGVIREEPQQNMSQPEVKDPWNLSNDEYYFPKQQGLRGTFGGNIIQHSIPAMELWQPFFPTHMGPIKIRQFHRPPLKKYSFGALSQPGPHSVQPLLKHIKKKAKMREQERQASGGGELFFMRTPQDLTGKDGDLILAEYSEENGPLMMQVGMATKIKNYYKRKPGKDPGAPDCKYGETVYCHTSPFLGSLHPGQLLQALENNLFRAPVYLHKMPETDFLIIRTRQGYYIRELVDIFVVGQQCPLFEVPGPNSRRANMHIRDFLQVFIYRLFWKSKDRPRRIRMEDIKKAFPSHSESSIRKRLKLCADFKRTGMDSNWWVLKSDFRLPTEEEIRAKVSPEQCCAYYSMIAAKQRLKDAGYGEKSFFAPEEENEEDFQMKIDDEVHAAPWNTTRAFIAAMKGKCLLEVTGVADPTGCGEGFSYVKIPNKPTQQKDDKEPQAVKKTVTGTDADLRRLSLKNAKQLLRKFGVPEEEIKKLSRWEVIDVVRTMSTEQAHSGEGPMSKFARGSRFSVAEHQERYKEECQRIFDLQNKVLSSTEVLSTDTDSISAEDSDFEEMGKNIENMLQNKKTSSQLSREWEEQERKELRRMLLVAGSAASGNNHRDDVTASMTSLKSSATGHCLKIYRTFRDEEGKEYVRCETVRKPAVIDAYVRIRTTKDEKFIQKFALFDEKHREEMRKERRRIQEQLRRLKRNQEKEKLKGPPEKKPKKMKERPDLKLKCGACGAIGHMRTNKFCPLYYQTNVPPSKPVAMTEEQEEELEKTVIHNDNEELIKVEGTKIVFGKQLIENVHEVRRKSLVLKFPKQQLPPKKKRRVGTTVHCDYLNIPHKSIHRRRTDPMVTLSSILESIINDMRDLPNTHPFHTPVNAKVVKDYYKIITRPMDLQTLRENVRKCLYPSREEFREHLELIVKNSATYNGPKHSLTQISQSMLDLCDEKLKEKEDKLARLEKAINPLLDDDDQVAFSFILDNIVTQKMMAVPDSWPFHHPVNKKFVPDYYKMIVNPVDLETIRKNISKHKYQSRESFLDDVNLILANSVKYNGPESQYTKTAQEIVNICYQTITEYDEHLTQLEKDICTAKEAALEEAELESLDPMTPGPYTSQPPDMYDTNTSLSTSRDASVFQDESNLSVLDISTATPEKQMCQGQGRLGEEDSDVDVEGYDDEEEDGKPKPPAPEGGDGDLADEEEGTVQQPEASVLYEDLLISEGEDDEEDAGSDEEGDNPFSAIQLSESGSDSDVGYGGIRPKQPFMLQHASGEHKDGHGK
Sequence of UniProt Q99759 (whole entry, looked up): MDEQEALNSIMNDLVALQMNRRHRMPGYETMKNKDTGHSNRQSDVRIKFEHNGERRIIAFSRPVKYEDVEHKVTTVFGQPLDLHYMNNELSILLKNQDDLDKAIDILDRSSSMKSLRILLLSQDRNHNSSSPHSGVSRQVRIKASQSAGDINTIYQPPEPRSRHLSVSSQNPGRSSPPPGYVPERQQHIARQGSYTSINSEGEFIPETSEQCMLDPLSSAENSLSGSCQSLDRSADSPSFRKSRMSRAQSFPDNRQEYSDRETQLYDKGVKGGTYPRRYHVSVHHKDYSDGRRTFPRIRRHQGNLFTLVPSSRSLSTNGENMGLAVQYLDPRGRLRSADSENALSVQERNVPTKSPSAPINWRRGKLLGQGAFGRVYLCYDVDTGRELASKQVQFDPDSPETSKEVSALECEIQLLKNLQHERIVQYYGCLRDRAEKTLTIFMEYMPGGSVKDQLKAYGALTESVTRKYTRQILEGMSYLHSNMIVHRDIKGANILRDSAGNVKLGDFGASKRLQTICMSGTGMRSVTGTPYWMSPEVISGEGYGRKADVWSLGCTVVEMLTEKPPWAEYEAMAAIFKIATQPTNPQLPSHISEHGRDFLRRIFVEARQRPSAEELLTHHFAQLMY
Sequence of UniProt Q86U86 (whole entry, looked up): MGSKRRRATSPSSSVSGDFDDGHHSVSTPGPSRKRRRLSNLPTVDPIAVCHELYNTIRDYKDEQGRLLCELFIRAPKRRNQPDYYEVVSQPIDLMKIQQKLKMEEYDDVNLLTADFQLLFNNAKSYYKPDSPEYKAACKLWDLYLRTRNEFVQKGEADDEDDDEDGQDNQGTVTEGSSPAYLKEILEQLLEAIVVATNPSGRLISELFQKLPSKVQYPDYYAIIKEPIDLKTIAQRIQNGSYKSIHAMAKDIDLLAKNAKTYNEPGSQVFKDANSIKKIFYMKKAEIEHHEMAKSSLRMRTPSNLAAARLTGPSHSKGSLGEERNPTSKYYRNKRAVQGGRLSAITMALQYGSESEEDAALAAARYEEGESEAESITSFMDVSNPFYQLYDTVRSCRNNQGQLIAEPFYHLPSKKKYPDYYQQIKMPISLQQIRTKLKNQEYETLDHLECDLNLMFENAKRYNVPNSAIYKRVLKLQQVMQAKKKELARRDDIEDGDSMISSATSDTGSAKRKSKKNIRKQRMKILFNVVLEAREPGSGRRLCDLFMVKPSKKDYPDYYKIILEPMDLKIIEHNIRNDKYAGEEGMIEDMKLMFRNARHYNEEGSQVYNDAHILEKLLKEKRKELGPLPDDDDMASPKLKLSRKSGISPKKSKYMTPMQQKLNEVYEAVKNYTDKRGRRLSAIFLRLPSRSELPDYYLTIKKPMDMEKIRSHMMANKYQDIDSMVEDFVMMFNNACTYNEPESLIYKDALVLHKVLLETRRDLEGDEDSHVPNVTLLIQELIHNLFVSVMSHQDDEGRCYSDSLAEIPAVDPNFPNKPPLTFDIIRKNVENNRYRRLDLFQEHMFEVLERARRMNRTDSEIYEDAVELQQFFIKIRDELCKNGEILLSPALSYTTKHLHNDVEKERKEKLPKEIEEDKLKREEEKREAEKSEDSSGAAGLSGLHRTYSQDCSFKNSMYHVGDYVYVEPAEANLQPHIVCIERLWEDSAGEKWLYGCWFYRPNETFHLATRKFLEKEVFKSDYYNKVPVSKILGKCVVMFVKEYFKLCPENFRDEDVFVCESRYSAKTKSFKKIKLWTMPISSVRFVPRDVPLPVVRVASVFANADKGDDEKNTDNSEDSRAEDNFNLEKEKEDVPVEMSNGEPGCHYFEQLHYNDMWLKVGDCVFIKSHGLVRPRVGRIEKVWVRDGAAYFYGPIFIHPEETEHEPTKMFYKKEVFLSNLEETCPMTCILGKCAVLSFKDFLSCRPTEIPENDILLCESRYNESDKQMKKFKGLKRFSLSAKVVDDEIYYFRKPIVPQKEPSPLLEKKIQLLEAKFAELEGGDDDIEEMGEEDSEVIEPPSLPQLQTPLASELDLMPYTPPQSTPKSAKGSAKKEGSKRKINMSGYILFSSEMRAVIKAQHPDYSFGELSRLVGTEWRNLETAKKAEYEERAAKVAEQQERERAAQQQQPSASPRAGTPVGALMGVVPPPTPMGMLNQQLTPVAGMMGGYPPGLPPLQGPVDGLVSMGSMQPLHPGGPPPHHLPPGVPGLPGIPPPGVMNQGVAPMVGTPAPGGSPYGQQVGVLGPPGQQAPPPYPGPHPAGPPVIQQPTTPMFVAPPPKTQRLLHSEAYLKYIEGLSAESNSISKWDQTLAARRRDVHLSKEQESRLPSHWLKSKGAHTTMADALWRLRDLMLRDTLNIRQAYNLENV
Sequence of UniProt P36894 (whole entry, looked up): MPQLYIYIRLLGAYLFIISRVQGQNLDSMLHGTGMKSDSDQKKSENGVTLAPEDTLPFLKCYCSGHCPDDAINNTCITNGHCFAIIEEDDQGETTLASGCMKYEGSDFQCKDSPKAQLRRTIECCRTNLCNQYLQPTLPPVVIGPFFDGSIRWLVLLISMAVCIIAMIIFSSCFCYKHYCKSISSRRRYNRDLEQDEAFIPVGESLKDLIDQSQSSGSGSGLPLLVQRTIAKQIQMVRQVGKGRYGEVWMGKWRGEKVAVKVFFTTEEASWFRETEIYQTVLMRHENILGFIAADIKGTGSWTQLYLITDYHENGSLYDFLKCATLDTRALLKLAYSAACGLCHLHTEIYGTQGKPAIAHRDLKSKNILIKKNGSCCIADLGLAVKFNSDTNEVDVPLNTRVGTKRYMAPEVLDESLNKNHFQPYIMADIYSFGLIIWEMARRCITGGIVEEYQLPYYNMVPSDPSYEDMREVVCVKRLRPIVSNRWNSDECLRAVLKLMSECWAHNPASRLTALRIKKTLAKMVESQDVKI
Sequence of UniProt P53778 (whole entry, looked up): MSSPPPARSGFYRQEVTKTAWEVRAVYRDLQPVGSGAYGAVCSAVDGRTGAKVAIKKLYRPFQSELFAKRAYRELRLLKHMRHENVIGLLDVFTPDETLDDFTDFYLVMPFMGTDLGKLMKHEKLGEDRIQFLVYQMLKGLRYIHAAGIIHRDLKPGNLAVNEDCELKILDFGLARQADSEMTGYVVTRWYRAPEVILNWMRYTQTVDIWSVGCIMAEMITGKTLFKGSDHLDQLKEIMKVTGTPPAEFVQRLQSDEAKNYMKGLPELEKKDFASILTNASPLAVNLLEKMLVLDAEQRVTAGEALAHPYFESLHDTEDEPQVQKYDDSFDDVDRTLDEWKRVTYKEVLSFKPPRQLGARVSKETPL

Block 1 — cell line: Huh-7; concentration: 10 µM; time: 24 h
Structure (SMILES) | viability [%]
CCN(CC)C(=S)SSC(=S)N(CC)CC | 96.9
Oc1c(I)cc(I)c2cccnc12 | 103
CC[C@H]1OC(=O)[C@H](C)[C@@H](O[C@H]2C[C@@](C)(OC)[C@@H](O)[C@H](C)O2)[C@H](C)[C@@H](O[C@@H]2O[C@H](C)C[C@H](N(C)C)[C@H]2O)[C@](C)(O)C[C@@H](C)/C(=N\OCOCCOC)[C@H](C)[C@@H](O)[C@]1(C)O | 101
CC1=C(C(=O)O)N2C(=O)[C@@H](NC(=O)[C@H](N)C3=CCC=CC3)[C@H]2SC1 | 104
CC1=NS(=O)(=O)c2cc(Cl)ccc2N1 | 98.6
NC[C@@H]1O[C@H](O[C@H]2[C@@H](O)[C@H](O[C@@H]3[C@@H](O)[C@H](N)C[C@H](N)[C@H]3O[C@H]3O[C@H](CO)[C@@H](O)[C@H](O)[C@H]3N)O[C@@H]2CO)[C@H](N)[C@@H](O)[C@@H]1O | 102
CCN(CC)CCOC(=O)[C@H](Cc1cccc2ccccc12)C[C@H]1CCCO1 | 97
O=C(Nc1ccccc1)c1ccccc1O | 95.1
Nc1nnc(-c2cccc(Cl)c2Cl)c(N)n1 | 103
Nc1ncn([C@@H]2O[C@H](CO)[C@@H](O)[C@H]2O)c(=O)n1 | 63.5
CC(=O)Nc1c(I)cc(I)c(C(=O)O)c1I | 97.2
CC(=O)OCC(=O)[C@H]1CC[C@H]2[C@@H]3CCC4=CC(=O)CC[C@]4(C)[C@H]3CC[C@]12C | 83.6

Block 2 — read-out: enzyme activity; mode: inhibitor; concentration: 0.5 µM; baseline: control
Target: Dual specificity protein kinase TTK (TTK, Homo sapiens, UniProt P33981)
Construct (P33981 1-857): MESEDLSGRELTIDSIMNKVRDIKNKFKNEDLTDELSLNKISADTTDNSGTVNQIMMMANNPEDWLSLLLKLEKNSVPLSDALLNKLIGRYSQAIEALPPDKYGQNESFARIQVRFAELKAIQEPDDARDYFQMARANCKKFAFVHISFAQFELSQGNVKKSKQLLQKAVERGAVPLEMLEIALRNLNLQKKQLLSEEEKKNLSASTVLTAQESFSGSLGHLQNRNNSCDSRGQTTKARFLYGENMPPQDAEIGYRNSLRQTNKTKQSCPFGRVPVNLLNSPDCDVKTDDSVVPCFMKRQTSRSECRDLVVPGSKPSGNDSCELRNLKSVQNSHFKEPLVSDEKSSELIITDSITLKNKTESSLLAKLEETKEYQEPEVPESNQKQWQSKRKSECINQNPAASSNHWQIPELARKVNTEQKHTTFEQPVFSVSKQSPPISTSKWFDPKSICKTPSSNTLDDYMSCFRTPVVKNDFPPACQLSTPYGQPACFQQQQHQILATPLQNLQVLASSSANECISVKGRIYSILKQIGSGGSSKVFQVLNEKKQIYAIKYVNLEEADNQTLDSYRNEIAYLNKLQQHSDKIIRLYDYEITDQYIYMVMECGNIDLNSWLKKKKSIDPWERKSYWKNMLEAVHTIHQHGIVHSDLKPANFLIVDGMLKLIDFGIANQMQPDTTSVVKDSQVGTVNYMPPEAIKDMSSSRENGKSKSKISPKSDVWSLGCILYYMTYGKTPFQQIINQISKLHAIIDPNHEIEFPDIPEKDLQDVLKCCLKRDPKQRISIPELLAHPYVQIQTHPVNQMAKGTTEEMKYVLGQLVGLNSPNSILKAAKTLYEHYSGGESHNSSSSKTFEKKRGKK
SMILES | remaining activity
Ic1cccc(CSc2nnc(-c3ccncc3)o2)c1 | 103%
COc1cc2ncnc(Nc3cccc(Cl)c3)c2cc1OC | 108%
Cc1nc2cc3nc(-c4cccs4)cnc3cc2n1C | 92.6%
CCOc1nc(NC(=O)Cc2cc(OC)ccc2OC)cc(N)c1C#N | 75.6%
O=C1c2ccccc2-c2n[nH]c3cccc1c23 | 68.9%
CN([C@@H](Cc1ccc(OS(=O)(=O)c2cccc3cnccc23)cc1)C(=O)N1CCN(c2ccccc2)CC1)S(=O)(=O)c1cccc2cnccc12 | 86%
CN(C)C[C@H]1CCn2c(c(C3=C(c4cn(C)c5ccccc45)C(=O)NC3=O)c3ccccc32)C1 | 105%
c1ccc(-c2[nH]ncc2-c2ccnc3ccccc23)nc1 | 97.4%
COc1cc2ncnc(Nc3ccc(O)c(Br)c3)c2cc1OC | 105%
CCN(CC)CCNC(=O)c1c(C)[nH]c(/C=C2\C(=O)Nc3ccc(Cl)cc32)c1C | 59.8%
Cn1nc2c3c(cccc31)C(=O)c1ccccc1-2 | 77.7%
O=C(NC(NC(=S)Nc1ccc(F)c([N+](=O)[O-])c1)C(Cl)(Cl)Cl)C(c1ccccc1)c1ccccc1 (stereo not drawn) | 96.9%
Cc1cn(-c2cc(NC(=O)c3ccc(C)c(Nc4nccc(-c5cccnc5)n4)c3)cc(C(F)(F)F)c2)cn1 | 97.9%
O=C(Nc1cccc(Nc2nccc(Nc3cccc(C(F)(F)F)c3)n2)c1)C1CC1 | 92.1%
Nc1cccc(-c2cc3c(Oc4cccc(O)c4)ncnc3[nH]2)c1 | 104%
N#Cc1c(NC(=O)c2cccc3ccccc23)sc2c1CCCC2 | 85.5%
c1ccc(-c2cnc(Nc3ccc(OCCN4CCCC4)cc3)s2)cc1 | 102%
Cc1cc2ncc(-c3ccccc3)nc2cc1C | 91%
O=C1C(Cl)=C(N2C(=O)CCC2=O)C(=O)c2ccccc21 | 108%
O=c1cc(-c2cccc3c2Sc2ccccc2S3)oc(N2CCOCC2)c1 | 106%
N#C/C(=C\c1ccc(O)c(O)c1)C(=O)NCc1ccccc1 | 103%
COc1cc2c(cc1OC)-c1[nH]nc(Nc3cccc(F)c3)c1C2 | 84.1%
C[C@@H]1CCN(C(=O)CC#N)C[C@@H]1N(C)c1ncnc2[nH]ccc12 | 108%
CCN(CC)C(=O)c1ccc(Nc2nc(OCC3CCCCC3)c3[nH]cnc3n2)cc1 | 47.8%

Block 3 — concentration: 10 µM
SMILES: C[S+]([O-])c1ccc(-c2nc(-c3ccncc3)c(-c3ccc(F)cc3)[nH]2)cc1 (stereo not drawn)
target | read-out | technique | ΔTm [°C]
Transcription initiation factor TFIID subunit 1-like, BD2 (TAF1L, Homo sapiens, UniProt Q8IZX4) | thermal stability | DSF | -0.23
Protein polybromo-1, BD6 (PBRM1, Homo sapiens, UniProt Q86U86) |  | thermal shift | 1.07 ± 0.3
Peregrin, bromodomain (BRPF1, Homo sapiens, UniProt P55201) | thermal stability | DSF | 2.26
Bromodomain-containing protein 3, BD2 (BRD3, Homo sapiens, UniProt Q15059) | thermal stability | DSF | 2.2
Histone acetyltransferase KAT2B (KAT2B, Homo sapiens, UniProt Q92831) | thermal stability | DSF | 0.43
Transcription initiation factor TFIID subunit 1-like, BD1 (TAF1L, Homo sapiens, UniProt Q8IZX4) | thermal stability | DSF | 0.21
ATPase family AAA domain-containing protein 2B (ATAD2B, Homo sapiens, UniProt Q9ULI0) | thermal stability | DSF | 0.39

Block 4 — read-out: cell-free assay; technique: competition with immobilised ligand; concentration: 1 µM
SMILES: CCCCN(CCCC)C(=O)CN1C[C@@H](c2cc(OC)c3c(c2)OCO3)[C@H](C(=O)O)[C@H]1CC(C)(C)CCC
target | remaining binding
Activin receptor type-1B (ACVR1B, Homo sapiens, UniProt P36896) | 96.4%
Rho-associated protein kinase 1 (ROCK1, Homo sapiens, UniProt Q13464) | 100%
Dual specificity protein kinase CLK2 (CLK2, Homo sapiens, UniProt P49760) | 100%
Homeodomain-interacting protein kinase 2 (HIPK2, Homo sapiens, UniProt Q9H2X6) | 97.1%
Cyclin-dependent kinase 15 (CDK15, Homo sapiens, UniProt Q96Q40) | 93.8%
Tyrosine-protein kinase ABL1, non-phosphorylated (ABL1, Homo sapiens, UniProt P00519) | 94.8%
Mitogen-activated protein kinase 12 (MAPK12, Homo sapiens, UniProt P53778) | 100%
Mitogen-activated protein kinase kinase kinase 3 (MAP3K3, Homo sapiens, UniProt Q99759) | 100%
Bone morphogenetic protein receptor type-1A (BMPR1A, Homo sapiens, UniProt P36894) | 100%
Serine/threonine-protein kinase MAK (MAK, Homo sapiens, UniProt P20794) | 100%
Phosphatidylinositol 4-phosphate 5-kinase type-1 alpha (PIP5K1A, Homo sapiens, UniProt Q99755) | 100%
Ephrin type-B receptor 3 (EPHB3, Homo sapiens, UniProt P54753) | 100%
Serine/threonine-protein kinase DCLK2 (DCLK2, Homo sapiens, UniProt Q8N568) | 87.4%
Casein kinase II subunit alpha (CSNK2A1, Homo sapiens, UniProt P68400) | 88.6%

Excerpt of the above (block 4):
target | remaining binding
Tyrosine-protein kinase ABL1, non-phosphorylated (ABL1, Homo sapiens, UniProt P00519) | 94.8%
Mitogen-activated protein kinase 12 (MAPK12, Homo sapiens, UniProt P53778) | 100%
Mitogen-activated protein kinase kinase kinase 3 (MAP3K3, Homo sapiens, UniProt Q99759) | 100%
Bone morphogenetic protein receptor type-1A (BMPR1A, Homo sapiens, UniProt P36894) | 100%
Serine/threonine-protein kinase MAK (MAK, Homo sapiens, UniProt P20794) | 100%
Phosphatidylinositol 4-phosphate 5-kinase type-1 alpha (PIP5K1A, Homo sapiens, UniProt Q99755) | 100%
Ephrin type-B receptor 3 (EPHB3, Homo sapiens, UniProt P54753) | 100%
